Assay results gathered from unrelated publications.
Every numbered part comes from another study and shows a few of its results, in no order. Values joined by “and” are separate records of one study, mostly repeats; a detail may differ.
Sequence of UniProt Q9HBH9 (whole entry, looked up): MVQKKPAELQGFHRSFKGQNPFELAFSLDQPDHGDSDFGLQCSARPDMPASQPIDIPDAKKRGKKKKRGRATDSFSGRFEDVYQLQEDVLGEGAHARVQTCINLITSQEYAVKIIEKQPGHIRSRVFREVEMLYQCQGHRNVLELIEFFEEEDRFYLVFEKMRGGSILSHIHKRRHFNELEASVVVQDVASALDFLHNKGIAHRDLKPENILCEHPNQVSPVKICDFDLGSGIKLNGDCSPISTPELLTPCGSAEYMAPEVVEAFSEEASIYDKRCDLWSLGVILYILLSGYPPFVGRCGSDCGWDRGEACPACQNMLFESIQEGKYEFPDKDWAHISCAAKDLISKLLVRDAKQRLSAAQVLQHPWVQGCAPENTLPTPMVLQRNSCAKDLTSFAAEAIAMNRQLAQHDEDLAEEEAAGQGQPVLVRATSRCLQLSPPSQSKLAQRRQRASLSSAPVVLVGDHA
Sequence of UniProt Q15208 (whole entry, looked up): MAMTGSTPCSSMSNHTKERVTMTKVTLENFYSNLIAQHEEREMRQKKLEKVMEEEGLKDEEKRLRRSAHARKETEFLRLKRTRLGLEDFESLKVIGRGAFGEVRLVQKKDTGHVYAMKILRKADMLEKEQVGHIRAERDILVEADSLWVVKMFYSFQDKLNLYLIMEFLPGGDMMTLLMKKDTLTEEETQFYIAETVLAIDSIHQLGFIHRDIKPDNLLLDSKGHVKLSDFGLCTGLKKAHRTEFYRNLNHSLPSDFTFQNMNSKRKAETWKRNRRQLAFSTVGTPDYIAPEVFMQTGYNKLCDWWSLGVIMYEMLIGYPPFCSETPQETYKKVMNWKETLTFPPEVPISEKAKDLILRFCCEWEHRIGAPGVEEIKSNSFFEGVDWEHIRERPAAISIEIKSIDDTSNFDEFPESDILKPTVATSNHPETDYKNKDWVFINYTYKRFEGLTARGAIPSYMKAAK
Sequence of UniProt Q15759 (whole entry, looked up): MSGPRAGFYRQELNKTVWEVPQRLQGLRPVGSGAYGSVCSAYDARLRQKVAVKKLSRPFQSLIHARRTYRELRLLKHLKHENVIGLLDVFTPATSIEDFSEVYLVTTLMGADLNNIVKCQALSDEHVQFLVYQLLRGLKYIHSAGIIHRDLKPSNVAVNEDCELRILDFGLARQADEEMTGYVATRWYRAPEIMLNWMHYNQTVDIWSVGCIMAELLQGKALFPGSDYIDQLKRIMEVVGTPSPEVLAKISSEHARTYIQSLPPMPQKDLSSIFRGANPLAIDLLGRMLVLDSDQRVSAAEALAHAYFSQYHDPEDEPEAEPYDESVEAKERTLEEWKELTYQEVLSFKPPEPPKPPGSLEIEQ
Sequence of UniProt Q9NWZ3 (whole entry, looked up): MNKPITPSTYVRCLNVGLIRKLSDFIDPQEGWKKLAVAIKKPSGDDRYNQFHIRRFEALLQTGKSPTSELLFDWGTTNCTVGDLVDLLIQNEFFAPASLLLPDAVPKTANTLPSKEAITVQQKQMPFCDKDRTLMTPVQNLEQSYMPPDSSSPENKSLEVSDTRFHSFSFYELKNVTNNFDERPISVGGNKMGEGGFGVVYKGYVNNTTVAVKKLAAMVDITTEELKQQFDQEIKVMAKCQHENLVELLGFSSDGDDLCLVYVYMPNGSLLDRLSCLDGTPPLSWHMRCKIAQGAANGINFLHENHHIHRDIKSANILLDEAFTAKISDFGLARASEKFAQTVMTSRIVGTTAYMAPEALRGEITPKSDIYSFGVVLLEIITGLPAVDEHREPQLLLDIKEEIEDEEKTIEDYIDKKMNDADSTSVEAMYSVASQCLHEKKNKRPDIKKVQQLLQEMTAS
Sequence of UniProt P10721 (whole entry, looked up): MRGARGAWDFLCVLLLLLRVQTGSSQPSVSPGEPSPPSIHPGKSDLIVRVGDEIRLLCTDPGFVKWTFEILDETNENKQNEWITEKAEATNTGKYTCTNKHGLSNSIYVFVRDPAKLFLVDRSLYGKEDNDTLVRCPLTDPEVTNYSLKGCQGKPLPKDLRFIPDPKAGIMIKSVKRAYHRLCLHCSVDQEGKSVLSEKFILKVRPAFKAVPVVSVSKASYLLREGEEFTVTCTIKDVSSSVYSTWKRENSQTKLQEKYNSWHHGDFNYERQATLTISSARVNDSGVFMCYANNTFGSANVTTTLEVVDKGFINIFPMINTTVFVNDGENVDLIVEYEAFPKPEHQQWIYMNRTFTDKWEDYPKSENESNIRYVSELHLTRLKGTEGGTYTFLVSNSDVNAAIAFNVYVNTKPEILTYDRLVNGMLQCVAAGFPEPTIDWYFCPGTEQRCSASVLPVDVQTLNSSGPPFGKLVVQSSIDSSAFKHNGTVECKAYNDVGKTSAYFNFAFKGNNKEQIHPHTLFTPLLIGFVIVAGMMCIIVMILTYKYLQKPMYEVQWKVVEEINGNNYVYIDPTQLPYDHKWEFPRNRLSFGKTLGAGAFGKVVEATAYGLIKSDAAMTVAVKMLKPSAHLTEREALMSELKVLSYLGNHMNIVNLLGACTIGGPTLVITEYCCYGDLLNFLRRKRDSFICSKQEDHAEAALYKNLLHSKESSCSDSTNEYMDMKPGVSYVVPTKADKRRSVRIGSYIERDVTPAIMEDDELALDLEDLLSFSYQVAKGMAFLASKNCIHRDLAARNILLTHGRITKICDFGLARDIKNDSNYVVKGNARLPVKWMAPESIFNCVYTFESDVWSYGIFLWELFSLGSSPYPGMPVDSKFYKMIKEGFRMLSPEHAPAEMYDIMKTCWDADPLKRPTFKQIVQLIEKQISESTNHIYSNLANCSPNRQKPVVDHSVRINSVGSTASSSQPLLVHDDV
Sequence of UniProt Q13873 (whole entry, looked up): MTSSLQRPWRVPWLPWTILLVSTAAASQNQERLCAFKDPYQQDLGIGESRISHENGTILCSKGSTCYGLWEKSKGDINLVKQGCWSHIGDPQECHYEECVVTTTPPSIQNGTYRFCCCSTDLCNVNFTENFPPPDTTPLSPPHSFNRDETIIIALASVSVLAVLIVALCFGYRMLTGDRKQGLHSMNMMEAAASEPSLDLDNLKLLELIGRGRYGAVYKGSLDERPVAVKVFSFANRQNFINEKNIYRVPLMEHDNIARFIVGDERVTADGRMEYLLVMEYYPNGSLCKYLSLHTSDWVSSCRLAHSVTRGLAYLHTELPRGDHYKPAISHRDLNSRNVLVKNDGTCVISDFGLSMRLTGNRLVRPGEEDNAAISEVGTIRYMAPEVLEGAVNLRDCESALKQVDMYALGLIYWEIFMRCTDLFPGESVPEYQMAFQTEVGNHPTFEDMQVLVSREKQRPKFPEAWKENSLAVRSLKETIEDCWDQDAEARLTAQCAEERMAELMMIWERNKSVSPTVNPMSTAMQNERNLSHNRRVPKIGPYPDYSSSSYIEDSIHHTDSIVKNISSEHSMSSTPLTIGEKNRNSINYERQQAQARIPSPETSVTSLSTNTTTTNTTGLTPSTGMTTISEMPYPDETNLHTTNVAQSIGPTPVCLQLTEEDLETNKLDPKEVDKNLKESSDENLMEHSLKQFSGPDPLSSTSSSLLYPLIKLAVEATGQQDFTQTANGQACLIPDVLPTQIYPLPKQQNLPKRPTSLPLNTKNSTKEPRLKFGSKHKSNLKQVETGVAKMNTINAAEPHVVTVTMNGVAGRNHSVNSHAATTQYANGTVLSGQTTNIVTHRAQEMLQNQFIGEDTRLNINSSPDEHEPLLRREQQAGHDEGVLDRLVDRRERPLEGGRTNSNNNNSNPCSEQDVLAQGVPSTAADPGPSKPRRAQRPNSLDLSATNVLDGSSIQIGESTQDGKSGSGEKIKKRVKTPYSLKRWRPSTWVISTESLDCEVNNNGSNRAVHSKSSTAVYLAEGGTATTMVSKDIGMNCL
Sequence of UniProt P68400 (whole entry, looked up): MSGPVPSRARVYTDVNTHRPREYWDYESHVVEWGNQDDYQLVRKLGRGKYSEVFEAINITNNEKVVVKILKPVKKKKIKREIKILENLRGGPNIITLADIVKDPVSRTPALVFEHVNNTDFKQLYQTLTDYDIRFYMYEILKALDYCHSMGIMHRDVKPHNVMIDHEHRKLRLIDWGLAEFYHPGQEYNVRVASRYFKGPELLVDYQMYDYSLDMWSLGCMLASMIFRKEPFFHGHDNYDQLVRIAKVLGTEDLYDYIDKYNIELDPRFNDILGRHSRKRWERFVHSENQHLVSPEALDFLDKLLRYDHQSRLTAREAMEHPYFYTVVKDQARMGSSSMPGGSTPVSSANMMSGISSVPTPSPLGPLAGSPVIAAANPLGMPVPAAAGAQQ

Block 1 — observed: cell-free assay; method: competition with immobilised ligand; concentration: 1 µM
Compound: CC(=O)c1c(NS(C)(=O)=O)c2cc(-c3ccc(Cl)cc3)c(-c3ccc(Cl)cc3Cl)nc2n(C)c1=O
| target | remaining binding [%] |
| --- | --- |
| MELK (Homo sapiens, UniProt Q14680) | 100 |
| DYRK1B (Homo sapiens, UniProt Q9Y463) | 100 |
| MYLK2 (Homo sapiens, UniProt Q9H1R3) | 98 |
| MKNK2 (Homo sapiens, UniProt Q9HBH9) | 75 |
| BMP2K (Homo sapiens, UniProt Q9NSY1) | 100 |
| ERN1 (Homo sapiens, UniProt O75460) | 77 |
| MAP3K15 (Homo sapiens, UniProt Q6ZN16) | 91 |
| CDK17 (Homo sapiens, UniProt Q00537) | 100 |
| CDC42BPB (Homo sapiens, UniProt Q9Y5S2) | 81 |
| Non-receptor tyrosine-protein kinase TYK2, JH1 (TYK2, Homo sapiens, UniProt P29597) | 94 |
| FGFR1 (Homo sapiens, UniProt P11362) | 97 |
| BMPR1B (Homo sapiens, UniProt O00238) | 100 |
| EGFR (Homo sapiens, UniProt P00533, del746-750) | 100 |
| FLT3 (Homo sapiens, UniProt P36888, D835V/ITD) | 87 |
| MAPK11 (Homo sapiens, UniProt Q15759) | 100 |
| MET (Homo sapiens, UniProt P08581, M1250T) | 90 |
| EGFR (Homo sapiens, UniProt P00533, L858R) | 98 |
| BMPR2 (Homo sapiens, UniProt Q13873) | 100 |
| AKT2 (Homo sapiens, UniProt P31751) | 100 |
| MAP3K6 (Homo sapiens, UniProt O95382) | 83 |
| MAP4K2 (Homo sapiens, UniProt Q12851) | 82 |
| Receptor-type tyrosine-protein kinase FLT3, autoinhibited (FLT3, Homo sapiens, UniProt P36888) | 96 |

Block 2 — observed: enzyme activity; action: inhibitor; concentration: 0.5 µM; reference: control
SMILES: CS(=O)(=O)CCNCc1ccc(-c2ccc3ncnc(Nc4ccc(OCc5cccc(F)c5)c(Cl)c4)c3c2)o1
| target | remaining activity [%] |
| --- | --- |
| EPHA5 (Homo sapiens, UniProt P54756) | 103 |
| KIT (Homo sapiens, UniProt P10721) | 98.4 |
| IRAK4 (Homo sapiens, UniProt Q9NWZ3) | 91.5 |
| CSNK2A1 (Homo sapiens, UniProt P68400) | 121 |
| STK38 (Homo sapiens, UniProt Q15208) | 101 |
| AKT3 (Homo sapiens, UniProt Q9Y243) | 83.5 |
| PLK2 (Homo sapiens, UniProt Q9NYY3) | 103 |
| MAP3K10 (Homo sapiens, UniProt Q02779) | 108 |
| CHEK1 (Homo sapiens, UniProt O14757) | 100 |
| MKNK2 (Homo sapiens, UniProt Q9HBH9) | 97.3 |
| PRKCI (Homo sapiens, UniProt P41743) | 106 |

Block 3 — cell line: A-375; concentration: 100 µM; time: 18 h
| SMILES | viability |
| --- | --- |
| COc1c(N2C[C@@H]3CCCN[C@@H]3C2)c(F)cc2c(=O)c(C(=O)O)cn(C3CC3)c12 | 65.6% |
| Cc1cc(O)cc(C)c1Cl | 66.4% |
| C[C@@H](O)[C@H]1C(=O)N2C(C(=O)O)=C(SCCN=CN)C[C@H]12 | 107% |
| CC1=C(C(=O)O)N2C(=O)[C@@H](NC(=O)[C@H](N)C3=CCC=CC3)[C@H]2SC1 | 107% |
| COc1ccc2[nH]c([S+]([O-])Cc3ncc(C)c(OC)c3C)nc2c1 (stereo not shown) | 84.6% |
| C[C@@H]1O[C@@]2(CS1)CN1CCC2CC1 | 98.3% |
| CCOC(=O)C1=C(COCCN)NC(C)=C(C(=O)OC)[C@@H]1c1ccccc1Cl | 8.39% |
| CNCC(O)c1ccc(OC(=O)C(C)(C)C)c(OC(=O)C(C)(C)C)c1 (stereo not shown) | 69.5% |
| O=C(CO)[C@@H](O)[C@H](O)[C@H](O)CO | 85.4% |
| CC1=C(/C=C/C(C)=C/C=C/C(C)=C\C(=O)O)C(C)(C)CCC1 | 90.6% |
| CNC(=O)c1cc(Oc2ccc(NC(=O)Nc3ccc(Cl)c(C(F)(F)F)c3)cc2)ccn1 | 31.5% and 30.9% |
| O=C1O[C@H](CO)[C@@H](O)[C@H](O)[C@H]1O | 75.2% |

Further values, each from its own experiment
| SMILES | target | assay | test system | setting | measurement | result |
| --- | --- | --- | --- | --- | --- | --- |
| O=C1CCC(N2Cc3c(ccc4c3OCC43CCC(Cc4ccccc4)CC3)C2=O)C(=O)N1 (stereo not shown) | CRBN/Zinc finger protein Helios (Homo sapiens, UniProt Q96SW2+Q9UKS7) | degrader, HiBiT | HEK293 | 13.72 nM | protein remaining | 84.5% |

A few entries again (block 2):
| target | remaining activity [%] |
| --- | --- |
| AKT3 (Homo sapiens, UniProt Q9Y243) | 83.5 |
| CHEK1 (Homo sapiens, UniProt O14757) | 100 |
| PRKCI (Homo sapiens, UniProt P41743) | 106 |
| MAP3K10 (Homo sapiens, UniProt Q02779) | 108 |
| IRAK4 (Homo sapiens, UniProt Q9NWZ3) | 91.5 |
| MKNK2 (Homo sapiens, UniProt Q9HBH9) | 97.3 |
| EPHA5 (Homo sapiens, UniProt P54756) | 103 |
| PLK2 (Homo sapiens, UniProt Q9NYY3) | 103 |
